Measured values gathered from unrelated publications.
Each line is one published result; not all experiments were run side by side.
Target: Serine/threonine-protein kinase PAK 4 (PAK4, Homo sapiens, UniProt O96013)
UniProt O96013, sequence (whole entry, looked up): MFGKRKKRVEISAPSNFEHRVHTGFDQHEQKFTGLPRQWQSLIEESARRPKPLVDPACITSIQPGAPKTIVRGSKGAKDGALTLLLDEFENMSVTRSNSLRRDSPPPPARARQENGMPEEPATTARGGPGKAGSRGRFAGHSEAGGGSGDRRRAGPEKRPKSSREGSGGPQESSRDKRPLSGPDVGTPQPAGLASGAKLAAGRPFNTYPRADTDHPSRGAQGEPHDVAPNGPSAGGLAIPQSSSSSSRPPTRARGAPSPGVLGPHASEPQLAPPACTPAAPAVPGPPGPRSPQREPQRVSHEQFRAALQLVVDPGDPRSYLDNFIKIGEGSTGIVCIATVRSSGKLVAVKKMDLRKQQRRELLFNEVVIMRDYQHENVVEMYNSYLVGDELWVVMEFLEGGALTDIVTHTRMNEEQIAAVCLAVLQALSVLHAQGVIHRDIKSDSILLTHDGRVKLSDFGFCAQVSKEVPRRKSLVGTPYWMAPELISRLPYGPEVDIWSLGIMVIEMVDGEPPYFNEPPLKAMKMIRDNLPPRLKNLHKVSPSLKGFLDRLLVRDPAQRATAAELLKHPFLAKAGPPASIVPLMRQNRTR

C[C@H](NCc1ccc(-c2ccc(C(F)(F)F)cc2)cc1)C(N)=O
inhibition (cell-free assay, competition with immobilised ligand; 1 µM): 0%

CS(C)(=O)=Nc1ccc(-c2ccc(-c3nc4cc(O[C@@H]5CO[C@H]6[C@@H]5OC[C@H]6O)[nH]c4cc3F)cc2)cc1
inhibition (enzyme activity, inhibitor; 10 µM): 2%

N[C@H](C(=O)N1CCCC1)C1CCN(c2nccc3c(-c4ncc(Cl)cc4Cl)cccc23)CC1
inhibition (kinase activity, inhibitor; 10 µM, with: ATP 1 mM): 1.4%

Nc1ccc(/C=C/C(=O)N2CCc3c(oc4c(-c5ccc(F)cc5)cc(-c5ccc(C(=O)N6CCC(F)(F)CC6)cn5)cc34)C2)cn1
remaining binding (binding, competition with immobilised ligand; 1 µM): 91%

O=C1NC(=O)c2c1c1cc(F)c[n+]3c1c1c2c2cc(O)ccc2[n]1[Ru-4]312([N]=C=S)[S+]3CC[S+]1CC[S+]2CC3 (centres unmarked)
remaining activity (enzyme activity; 100 nM, human enzyme, with: 10 µM ATP; reference: untreated): 71%

CCOC(=O)[C@@H]1Cc2c(cc([N+](=O)[O-])cc2[N+](=O)[O-])[C@H](O)[C@]12C(=O)Nc1ccc(Br)cc12
remaining binding (binding, competition with immobilised ligand; 0.1 µM): 93%

O=C(N[C@@H]1c2ccccc2C[C@H]1N1CCCC1)c1ccc(-c2ccnc3[nH]ccc23)nc1
remaining binding (binding, competition with immobilised ligand; 3 µM): 6.5%

CC(C)[C@H]1NC(=O)C[C@H]2/C=C/CCSSC[C@@H](NC1=O)C(=O)N[C@H](Cc1cccc3ccccc13)C(=O)NCC(=O)O2
inhibition (enzyme activity, inhibitor; 10 µM): 1.3%

Excerpt of the above:
CS(C)(=O)=Nc1ccc(-c2ccc(-c3nc4cc(O[C@@H]5CO[C@H]6[C@@H]5OC[C@H]6O)[nH]c4cc3F)cc2)cc1
inhibition (enzyme activity, inhibitor; 10 µM): 2%
